# Published values collected from several papers.
# Numbered parts are unrelated; each lists some results of a single study.
# Sequence of UniProt P10721 (whole entry, unmodified, looked up): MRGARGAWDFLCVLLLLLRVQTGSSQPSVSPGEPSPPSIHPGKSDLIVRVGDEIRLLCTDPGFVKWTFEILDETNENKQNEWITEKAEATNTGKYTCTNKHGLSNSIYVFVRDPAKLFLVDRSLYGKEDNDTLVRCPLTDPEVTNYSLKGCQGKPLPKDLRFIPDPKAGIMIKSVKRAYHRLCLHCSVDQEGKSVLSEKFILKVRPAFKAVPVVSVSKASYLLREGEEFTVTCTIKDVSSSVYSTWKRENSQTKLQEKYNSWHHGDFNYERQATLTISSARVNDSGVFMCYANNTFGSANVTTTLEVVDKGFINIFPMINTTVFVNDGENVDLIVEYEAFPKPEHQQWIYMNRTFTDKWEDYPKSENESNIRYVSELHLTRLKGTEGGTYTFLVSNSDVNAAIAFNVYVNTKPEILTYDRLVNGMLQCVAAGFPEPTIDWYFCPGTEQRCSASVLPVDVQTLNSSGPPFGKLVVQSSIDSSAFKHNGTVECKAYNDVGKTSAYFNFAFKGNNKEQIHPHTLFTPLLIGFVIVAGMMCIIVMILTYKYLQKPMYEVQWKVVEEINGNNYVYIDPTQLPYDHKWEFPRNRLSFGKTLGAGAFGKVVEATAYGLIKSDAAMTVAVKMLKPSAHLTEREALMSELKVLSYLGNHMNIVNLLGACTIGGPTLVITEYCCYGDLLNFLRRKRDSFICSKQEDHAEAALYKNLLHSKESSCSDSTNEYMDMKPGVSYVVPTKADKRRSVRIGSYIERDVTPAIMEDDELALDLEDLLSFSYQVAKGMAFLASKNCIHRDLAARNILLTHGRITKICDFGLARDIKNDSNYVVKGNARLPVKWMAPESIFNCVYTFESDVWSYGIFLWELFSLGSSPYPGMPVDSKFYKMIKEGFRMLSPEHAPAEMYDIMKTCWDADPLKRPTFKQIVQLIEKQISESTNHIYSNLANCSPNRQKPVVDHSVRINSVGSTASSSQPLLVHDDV
# Sequence of UniProt P23458 (whole entry, looked up): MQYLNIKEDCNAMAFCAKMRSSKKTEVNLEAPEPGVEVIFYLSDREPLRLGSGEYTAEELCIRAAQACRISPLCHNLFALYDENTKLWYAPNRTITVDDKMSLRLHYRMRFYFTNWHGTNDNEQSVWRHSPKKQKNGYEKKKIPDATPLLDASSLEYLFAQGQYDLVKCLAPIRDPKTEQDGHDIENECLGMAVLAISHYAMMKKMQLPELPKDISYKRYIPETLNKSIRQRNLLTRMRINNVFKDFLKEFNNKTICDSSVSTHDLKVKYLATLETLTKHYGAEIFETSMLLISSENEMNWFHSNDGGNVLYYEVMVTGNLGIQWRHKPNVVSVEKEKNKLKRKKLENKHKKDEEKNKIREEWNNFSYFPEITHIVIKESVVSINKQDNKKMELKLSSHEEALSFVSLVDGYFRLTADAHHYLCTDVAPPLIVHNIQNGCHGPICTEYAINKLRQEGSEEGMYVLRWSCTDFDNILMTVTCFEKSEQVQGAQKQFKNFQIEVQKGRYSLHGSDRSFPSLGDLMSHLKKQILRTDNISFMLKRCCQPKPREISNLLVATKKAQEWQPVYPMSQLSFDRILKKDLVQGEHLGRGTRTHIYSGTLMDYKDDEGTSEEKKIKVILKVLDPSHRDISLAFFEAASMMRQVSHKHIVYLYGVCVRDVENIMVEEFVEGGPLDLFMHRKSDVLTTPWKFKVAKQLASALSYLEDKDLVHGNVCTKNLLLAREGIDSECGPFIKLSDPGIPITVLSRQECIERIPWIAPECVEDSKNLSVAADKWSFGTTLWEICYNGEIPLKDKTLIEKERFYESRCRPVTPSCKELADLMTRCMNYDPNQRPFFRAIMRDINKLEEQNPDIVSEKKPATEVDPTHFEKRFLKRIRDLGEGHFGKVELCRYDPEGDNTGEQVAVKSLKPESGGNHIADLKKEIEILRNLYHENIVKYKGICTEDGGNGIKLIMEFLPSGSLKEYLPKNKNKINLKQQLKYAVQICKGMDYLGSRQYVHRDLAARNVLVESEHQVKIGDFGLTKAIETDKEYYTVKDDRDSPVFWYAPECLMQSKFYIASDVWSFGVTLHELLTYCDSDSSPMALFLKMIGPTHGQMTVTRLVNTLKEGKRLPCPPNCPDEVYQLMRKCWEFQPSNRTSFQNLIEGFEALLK
# Sequence of UniProt Q16620 (whole entry, looked up): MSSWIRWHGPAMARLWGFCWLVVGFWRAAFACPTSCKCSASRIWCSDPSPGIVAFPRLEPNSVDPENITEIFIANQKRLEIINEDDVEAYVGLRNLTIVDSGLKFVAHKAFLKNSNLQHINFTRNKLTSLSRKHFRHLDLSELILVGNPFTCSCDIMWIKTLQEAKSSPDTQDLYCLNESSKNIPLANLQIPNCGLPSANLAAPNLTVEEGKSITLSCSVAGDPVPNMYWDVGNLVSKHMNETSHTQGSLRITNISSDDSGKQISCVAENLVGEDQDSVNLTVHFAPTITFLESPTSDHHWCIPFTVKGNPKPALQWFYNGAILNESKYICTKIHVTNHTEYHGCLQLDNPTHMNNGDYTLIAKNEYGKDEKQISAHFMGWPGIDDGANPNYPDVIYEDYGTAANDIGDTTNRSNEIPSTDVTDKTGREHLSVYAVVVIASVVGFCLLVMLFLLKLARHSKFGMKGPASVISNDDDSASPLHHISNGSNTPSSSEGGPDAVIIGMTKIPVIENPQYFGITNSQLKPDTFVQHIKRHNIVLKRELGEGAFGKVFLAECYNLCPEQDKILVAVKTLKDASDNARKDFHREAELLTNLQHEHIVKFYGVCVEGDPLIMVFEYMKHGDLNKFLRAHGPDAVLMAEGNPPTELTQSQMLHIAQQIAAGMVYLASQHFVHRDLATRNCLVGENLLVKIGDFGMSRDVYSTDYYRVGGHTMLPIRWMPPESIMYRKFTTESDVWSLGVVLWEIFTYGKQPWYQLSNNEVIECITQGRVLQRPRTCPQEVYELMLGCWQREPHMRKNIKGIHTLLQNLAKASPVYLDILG
# Sequence of UniProt Q13153 (whole entry, looked up): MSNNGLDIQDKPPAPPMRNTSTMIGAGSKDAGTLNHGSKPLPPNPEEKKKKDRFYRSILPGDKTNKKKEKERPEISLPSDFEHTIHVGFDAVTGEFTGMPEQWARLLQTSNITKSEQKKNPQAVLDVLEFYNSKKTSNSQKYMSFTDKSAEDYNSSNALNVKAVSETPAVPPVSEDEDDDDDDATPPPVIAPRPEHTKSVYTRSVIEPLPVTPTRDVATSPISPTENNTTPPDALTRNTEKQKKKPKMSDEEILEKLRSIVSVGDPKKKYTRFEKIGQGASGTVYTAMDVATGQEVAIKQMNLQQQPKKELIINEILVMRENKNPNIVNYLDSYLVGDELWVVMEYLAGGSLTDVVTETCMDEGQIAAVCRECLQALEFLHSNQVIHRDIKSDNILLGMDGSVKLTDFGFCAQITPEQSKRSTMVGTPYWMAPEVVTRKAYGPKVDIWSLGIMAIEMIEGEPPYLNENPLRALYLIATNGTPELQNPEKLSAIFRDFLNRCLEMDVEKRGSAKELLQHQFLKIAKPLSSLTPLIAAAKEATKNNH
# Sequence of UniProt P49674 (whole entry, looked up): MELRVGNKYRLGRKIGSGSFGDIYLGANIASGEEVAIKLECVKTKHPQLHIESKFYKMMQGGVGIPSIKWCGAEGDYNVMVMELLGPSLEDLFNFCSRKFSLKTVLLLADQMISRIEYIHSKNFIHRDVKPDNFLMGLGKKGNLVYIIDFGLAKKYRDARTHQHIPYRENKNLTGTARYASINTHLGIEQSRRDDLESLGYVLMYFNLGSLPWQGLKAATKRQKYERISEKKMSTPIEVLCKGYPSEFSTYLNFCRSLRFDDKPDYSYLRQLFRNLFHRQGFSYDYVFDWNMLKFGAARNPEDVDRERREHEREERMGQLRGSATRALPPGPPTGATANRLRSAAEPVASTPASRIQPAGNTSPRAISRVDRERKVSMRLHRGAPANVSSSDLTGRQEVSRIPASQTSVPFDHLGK
# Sequence of UniProt Q06418 (whole entry, looked up): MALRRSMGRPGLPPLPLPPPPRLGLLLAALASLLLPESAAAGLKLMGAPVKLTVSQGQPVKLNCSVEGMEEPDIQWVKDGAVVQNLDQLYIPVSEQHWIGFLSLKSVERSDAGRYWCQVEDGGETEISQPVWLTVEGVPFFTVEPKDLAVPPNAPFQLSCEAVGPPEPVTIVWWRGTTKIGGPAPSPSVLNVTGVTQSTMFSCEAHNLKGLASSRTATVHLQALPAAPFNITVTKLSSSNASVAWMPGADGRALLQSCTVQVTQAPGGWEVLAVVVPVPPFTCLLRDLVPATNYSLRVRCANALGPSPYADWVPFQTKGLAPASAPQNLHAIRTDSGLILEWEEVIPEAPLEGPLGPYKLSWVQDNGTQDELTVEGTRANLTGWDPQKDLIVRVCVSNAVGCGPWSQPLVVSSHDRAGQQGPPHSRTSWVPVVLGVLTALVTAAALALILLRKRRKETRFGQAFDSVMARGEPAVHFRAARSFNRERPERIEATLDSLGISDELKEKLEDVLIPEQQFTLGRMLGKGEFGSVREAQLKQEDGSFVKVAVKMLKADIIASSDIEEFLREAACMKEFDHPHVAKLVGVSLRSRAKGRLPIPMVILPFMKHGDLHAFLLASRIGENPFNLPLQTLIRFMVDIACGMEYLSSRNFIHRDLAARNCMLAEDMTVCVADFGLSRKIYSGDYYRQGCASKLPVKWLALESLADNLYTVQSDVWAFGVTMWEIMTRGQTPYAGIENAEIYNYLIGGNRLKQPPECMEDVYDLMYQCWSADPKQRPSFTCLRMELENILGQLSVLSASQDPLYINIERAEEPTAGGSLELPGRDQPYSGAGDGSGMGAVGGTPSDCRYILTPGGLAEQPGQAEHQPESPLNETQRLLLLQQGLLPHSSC

# Study 1
# Species: human
# Sample: microsomes or S9
# Concentration: 2 µM
# Time: 0.5 h
Structure (SMILES),remaining compound
O=C(CN1CCCC1Cn1cccn1)Nc1ccccc1-n1ccnc1 (stereo not shown),71%
CC(C)n1c(=O)c2cn(S(=O)(=O)c3ccc(C4CCCCC4)cc3)nc2n(C(C)C)c1=O,> 100%
CS(=O)(=O)N1C2CCC1CC(NC(=O)Cn1cc(-c3ccc(F)cc3)cn1)C2 (stereo not shown),51.8%
O=C(Nc1ccc2nncn2c1)c1cc(Cl)c2c(c1)OCO2,80.9%
CN(C(=O)CN1C(=O)COc2cc(Cl)c(Cl)cc21)C(CN1CCCC1)c1ccc(-c2ccnc(Cl)c2)cc1 (stereo not shown),90.7%
O=C(NC1CCOC2(CCS(=O)(=O)C2)C1)c1cccc2cc[nH]c12 (stereo not shown),> 100%
O=C1NC2c3ccccc3C(=O)N2c2ccccc21 (stereo not shown),50.2%
N#Cc1c(-c2cccs2)cc(=O)[nH]c1SCC(=O)c1ccc(Br)cc1,76.2%
Cn1cnnc1C1CCCCN1S(=O)(=O)c1cccc2cccnc12 (stereo not shown),77%

# Study 2
# SMILES: Cc1ccc(S(=O)(=O)/C=C/C#N)cc1
# Read-out: enzyme activity
# Action: inhibitor
# Concentration: 0.5 µM
# Relative to: control
target,remaining activity
"Cyclin-dependent kinase 2, with cyclin E (CDK2, Homo sapiens, UniProt P24941)",89.2%
"Vascular endothelial growth factor receptor 1 (FLT1, Homo sapiens, UniProt P17948)",92.8%
"Casein kinase I isoform epsilon (CSNK1E, Homo sapiens, UniProt P49674)",107%
"Dual specificity protein kinase CLK2 (CLK2, Homo sapiens, UniProt P49760)",103%
"Serine/threonine-protein kinase PAK 1 (PAK1, Homo sapiens, UniProt Q13153)",89.5%
"Tyrosine-protein kinase receptor TYRO3 (TYRO3, Homo sapiens, UniProt Q06418)",99.8%
"Serine/threonine-protein kinase Sgk2 (SGK2, Homo sapiens, UniProt Q9HBY8)",112%
"Protein kinase C zeta type (PRKCZ, Homo sapiens, UniProt Q05513)",101%
"Serine/threonine-protein kinase PAK 6 (PAK6, Homo sapiens, UniProt Q9NQU5)",107%

# Study 3
# Compound: CNCc1ccccc1-c1csc([C@H](C)Nc2nc(C)nc3cc(OC)c(OC)cc23)c1
# Read-out: cell-free assay
# Method: competition with immobilised ligand
# Concentration: 1 µM
target,remaining binding
"Mast/stem cell growth factor receptor Kit (KIT, Homo sapiens, UniProt P10721, D816V)",100%
"Serine/threonine-protein kinase 16 (STK16, Homo sapiens, UniProt O75716)",100%
"Phosphatidylinositol 4-phosphate 3-kinase C2 domain-containing subunit beta (PIK3C2B, Homo sapiens, UniProt O00750)",100%
"Calcium/calmodulin-dependent protein kinase type IV (CAMK4, Homo sapiens, UniProt Q16566)",99%
"Dual specificity protein kinase CLK3 (CLK3, Homo sapiens, UniProt P49761)",100%
"Dual specificity mitogen-activated protein kinase kinase 2 (MAP2K2, Homo sapiens, UniProt P36507)",100%
"Serine/threonine-protein kinase B-raf (BRAF, Homo sapiens, UniProt P15056, V600E)",84%
"Receptor tyrosine-protein kinase erbB-3 (ERBB3, Homo sapiens, UniProt P21860)",87%
"BDNF/NT-3 growth factors receptor (NTRK2, Homo sapiens, UniProt Q16620)",98%
"Phosphatidylinositol 4,5-bisphosphate 3-kinase catalytic subunit delta isoform (PIK3CD, Homo sapiens, UniProt O00329)",100%
"Phosphatidylinositol 3-kinase catalytic subunit type 3 (PIK3C3, Homo sapiens, UniProt Q8NEB9)",93%
"Dual specificity protein kinase TTK (TTK, Homo sapiens, UniProt P33981)",100%
"Tyrosine-protein kinase JAK1, JH2 (JAK1, Homo sapiens, UniProt P23458)",68%
"Ephrin type-A receptor 7 (EPHA7, Homo sapiens, UniProt Q15375)",100%
"Serine/threonine-protein kinase PLK2 (PLK2, Homo sapiens, UniProt Q9NYY3)",83%

# Single results of other studies
SMILES,cell line,concentration,time,quantity,value
N=C(N)c1ccc(OCCCCCOc2ccc(C(=N)N)cc2)cc1,HaCaT,100 µM,60 h,viability,18.9%

# Repeated from above (study 3):
target,remaining binding
"BDNF/NT-3 growth factors receptor (NTRK2, Homo sapiens, UniProt Q16620)",98%
"Phosphatidylinositol 4,5-bisphosphate 3-kinase catalytic subunit delta isoform (PIK3CD, Homo sapiens, UniProt O00329)",100%
"Phosphatidylinositol 3-kinase catalytic subunit type 3 (PIK3C3, Homo sapiens, UniProt Q8NEB9)",93%
"Dual specificity protein kinase TTK (TTK, Homo sapiens, UniProt P33981)",100%
